Experimental data from different studies.
A part holds a random share of what one study measured. Positions count from the first letter of the parent shown.
UniProt Q12866, sequence (whole entry, looked up): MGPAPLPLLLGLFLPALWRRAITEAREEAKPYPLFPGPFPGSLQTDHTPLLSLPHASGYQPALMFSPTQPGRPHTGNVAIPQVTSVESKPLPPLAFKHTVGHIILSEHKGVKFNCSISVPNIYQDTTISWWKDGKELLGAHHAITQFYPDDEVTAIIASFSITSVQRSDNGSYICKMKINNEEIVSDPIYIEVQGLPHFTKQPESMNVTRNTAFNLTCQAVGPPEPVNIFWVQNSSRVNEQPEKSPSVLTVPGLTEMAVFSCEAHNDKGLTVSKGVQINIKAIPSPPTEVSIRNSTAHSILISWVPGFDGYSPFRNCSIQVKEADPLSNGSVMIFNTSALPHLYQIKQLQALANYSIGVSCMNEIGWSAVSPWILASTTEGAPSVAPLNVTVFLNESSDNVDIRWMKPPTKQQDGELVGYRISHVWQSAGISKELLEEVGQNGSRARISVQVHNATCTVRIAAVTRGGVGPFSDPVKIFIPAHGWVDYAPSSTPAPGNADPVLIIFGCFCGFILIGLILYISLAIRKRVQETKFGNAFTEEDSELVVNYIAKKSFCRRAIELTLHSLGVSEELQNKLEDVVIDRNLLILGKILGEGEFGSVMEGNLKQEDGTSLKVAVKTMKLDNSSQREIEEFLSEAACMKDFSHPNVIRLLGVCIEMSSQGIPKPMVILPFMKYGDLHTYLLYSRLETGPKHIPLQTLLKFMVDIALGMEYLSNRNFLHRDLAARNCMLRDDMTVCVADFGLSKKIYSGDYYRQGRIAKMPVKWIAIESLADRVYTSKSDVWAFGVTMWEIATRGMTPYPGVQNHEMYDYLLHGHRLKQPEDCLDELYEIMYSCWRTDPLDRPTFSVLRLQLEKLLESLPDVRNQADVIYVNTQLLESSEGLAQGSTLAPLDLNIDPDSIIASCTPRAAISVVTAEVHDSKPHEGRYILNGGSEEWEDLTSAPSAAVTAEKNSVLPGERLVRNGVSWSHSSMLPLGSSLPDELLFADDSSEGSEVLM
UniProt P42338, sequence (whole entry, looked up): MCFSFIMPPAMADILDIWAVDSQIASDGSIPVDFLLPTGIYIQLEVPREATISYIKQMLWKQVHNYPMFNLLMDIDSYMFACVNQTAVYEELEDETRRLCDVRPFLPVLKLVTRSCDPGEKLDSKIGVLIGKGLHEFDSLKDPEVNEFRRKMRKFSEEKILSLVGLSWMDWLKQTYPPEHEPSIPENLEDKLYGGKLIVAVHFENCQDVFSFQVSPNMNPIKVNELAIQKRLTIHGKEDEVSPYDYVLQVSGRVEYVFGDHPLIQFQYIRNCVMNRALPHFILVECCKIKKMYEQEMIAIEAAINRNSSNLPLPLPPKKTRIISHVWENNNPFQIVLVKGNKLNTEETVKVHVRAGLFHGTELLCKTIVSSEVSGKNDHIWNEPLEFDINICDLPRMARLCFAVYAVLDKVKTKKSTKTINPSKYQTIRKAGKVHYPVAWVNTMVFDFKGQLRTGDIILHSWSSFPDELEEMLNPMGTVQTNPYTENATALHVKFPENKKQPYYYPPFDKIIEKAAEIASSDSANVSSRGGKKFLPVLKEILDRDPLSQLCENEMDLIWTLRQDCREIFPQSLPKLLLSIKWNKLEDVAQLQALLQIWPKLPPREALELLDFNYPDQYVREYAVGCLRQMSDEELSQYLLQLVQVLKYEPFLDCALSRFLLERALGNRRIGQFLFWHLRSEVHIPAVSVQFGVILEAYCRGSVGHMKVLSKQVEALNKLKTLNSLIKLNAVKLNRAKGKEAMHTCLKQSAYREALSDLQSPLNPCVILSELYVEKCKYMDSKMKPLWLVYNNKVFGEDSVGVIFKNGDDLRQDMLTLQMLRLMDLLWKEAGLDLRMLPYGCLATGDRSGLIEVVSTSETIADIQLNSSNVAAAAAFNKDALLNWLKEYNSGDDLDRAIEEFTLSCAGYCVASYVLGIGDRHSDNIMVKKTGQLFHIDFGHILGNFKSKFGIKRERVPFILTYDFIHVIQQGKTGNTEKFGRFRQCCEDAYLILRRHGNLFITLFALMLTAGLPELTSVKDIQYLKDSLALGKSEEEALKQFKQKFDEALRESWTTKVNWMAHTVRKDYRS
UniProt Q8NFD2, sequence (whole entry, looked up): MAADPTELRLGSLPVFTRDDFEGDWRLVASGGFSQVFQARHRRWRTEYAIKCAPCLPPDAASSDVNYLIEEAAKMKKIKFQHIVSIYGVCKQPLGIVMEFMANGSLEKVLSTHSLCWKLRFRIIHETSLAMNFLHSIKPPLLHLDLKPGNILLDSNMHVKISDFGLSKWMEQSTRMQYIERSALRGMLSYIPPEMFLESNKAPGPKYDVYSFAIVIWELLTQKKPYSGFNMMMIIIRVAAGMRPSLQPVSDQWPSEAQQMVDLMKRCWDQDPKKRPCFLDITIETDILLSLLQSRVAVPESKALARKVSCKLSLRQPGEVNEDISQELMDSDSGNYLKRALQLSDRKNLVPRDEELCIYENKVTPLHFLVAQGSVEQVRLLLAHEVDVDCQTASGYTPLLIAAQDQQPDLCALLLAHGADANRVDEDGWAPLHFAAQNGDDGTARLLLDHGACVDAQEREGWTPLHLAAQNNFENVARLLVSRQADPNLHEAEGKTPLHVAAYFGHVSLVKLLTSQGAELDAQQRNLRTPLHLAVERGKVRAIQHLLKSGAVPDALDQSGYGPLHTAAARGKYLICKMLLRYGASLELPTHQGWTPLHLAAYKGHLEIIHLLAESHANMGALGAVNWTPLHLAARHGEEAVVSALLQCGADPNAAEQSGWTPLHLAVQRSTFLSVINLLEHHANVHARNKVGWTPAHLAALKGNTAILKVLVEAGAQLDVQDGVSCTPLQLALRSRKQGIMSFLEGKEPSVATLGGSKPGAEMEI
UniProt Q9UHD2, sequence (whole entry, looked up): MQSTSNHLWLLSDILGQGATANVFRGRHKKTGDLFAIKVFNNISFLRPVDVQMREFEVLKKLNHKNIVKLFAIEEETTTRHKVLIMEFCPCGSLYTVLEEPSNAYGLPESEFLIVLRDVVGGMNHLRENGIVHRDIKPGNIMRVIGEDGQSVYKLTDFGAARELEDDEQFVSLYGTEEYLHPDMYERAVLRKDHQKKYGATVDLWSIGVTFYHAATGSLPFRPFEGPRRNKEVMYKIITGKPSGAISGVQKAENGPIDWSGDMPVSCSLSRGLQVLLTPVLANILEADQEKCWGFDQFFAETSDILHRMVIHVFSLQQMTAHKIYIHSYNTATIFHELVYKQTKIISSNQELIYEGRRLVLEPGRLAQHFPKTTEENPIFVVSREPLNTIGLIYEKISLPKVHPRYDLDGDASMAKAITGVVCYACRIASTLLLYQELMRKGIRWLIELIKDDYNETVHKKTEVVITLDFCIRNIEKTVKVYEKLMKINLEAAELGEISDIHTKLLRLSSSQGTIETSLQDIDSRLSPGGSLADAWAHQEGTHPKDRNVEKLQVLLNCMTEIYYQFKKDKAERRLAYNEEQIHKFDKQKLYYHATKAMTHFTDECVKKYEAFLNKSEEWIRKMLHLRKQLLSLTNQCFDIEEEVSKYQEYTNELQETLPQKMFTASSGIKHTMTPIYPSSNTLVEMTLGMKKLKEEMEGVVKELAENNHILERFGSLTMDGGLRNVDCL
UniProt Q6P2M8, sequence (whole entry, looked up): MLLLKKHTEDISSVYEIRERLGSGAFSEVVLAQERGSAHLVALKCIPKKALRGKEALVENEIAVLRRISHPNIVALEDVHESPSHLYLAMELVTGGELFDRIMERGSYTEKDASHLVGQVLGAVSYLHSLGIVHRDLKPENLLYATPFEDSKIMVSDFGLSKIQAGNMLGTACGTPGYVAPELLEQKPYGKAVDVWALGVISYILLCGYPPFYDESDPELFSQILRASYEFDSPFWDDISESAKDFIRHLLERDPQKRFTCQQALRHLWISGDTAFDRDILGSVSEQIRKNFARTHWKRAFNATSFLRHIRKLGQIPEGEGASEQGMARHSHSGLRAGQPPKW
UniProt Q9P286, sequence (whole entry, looked up): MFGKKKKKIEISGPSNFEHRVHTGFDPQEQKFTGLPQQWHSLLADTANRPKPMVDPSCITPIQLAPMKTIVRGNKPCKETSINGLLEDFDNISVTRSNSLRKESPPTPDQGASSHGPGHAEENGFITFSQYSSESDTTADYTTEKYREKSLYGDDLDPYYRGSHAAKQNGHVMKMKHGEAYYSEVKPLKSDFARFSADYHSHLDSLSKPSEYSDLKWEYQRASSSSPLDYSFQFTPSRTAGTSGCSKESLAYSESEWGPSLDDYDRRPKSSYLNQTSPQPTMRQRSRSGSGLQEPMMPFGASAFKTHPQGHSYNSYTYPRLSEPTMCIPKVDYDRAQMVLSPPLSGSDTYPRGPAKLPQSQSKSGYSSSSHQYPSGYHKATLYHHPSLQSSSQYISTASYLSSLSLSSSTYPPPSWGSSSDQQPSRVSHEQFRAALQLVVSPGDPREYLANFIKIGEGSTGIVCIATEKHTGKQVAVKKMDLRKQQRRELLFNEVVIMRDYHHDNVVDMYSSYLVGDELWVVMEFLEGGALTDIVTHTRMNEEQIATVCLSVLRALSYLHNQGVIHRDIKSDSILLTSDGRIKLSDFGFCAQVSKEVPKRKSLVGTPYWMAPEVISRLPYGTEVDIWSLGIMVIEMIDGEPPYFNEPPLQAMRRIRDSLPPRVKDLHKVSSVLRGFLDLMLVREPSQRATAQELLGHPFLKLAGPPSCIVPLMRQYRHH

Sample 1 — technique: protein-binding microarray; form: double-stranded DNA, one strand shown; medium: in vitro; tested at: 0.8 µM; setting: whole 60-bp probe, no competitor; reading: higher = stronger binding; all sequences stand within: … GTCTTGATTCGCTTGACGCTGCTG
Target: Centromere-binding protein 1, full length, N-terminal tag (CBF1, Saccharomyces cerevisiae, UniProt P17106, residues 1-351)
UniProt P17106, sequence (whole entry, looked up): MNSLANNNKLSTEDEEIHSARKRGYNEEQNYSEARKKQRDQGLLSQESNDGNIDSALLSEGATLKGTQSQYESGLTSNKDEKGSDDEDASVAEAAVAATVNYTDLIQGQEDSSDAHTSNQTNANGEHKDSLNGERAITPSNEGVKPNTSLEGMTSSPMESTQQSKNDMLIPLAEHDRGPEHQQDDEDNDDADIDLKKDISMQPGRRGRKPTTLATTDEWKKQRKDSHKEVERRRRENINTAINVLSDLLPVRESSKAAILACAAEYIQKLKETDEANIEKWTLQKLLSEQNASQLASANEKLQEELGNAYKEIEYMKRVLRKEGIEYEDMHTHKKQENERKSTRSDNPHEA
| Oligonucleotide | fluorescence intensity [a.u.] |
| --- | --- |
| CTAAACCCACATCAGCACGAGTAGCGTACATAATTC | 538 |
| GAACGGGCTGCCAACCCCGTGGACCGTCAGGTATAG | 531 |
| CTAATTCAAAATAGGAAGGTGACAATGAAACCATTC | 535 |
| GAATTATGTATATGTGACGTGTATGTATTTGTATAG | 588 |
| TGTACGAAGCTATTGCACATGCTTATAGTAGTTAGG | 626 |
| CTATTAACAGATCTGGACGTGATTTTTTTTTTTTTC | 573 |
| GAAATTCCGTTTCATCATATGATCTGGCCGTCTTAG | 703 |
| CTACTCATATATGGTCACGTGGCTCGATGTTTATTC | 25200 |

Sample 2 — observed: cell-free assay; technique: competition with immobilised ligand; tested at: 1 µM
Structure (SMILES): NS(=O)(=O)c1cc(NC(=O)Cc2ccccc2)ccc1Oc1cccc(Cl)c1
| target | remaining binding [%] |
| --- | --- |
| Serine/threonine-protein kinase Sgk1 (SGK1, Homo sapiens, UniProt O00141) | 87 |
| Tyrosine-protein kinase JAK1, JH2 (JAK1, Homo sapiens, UniProt P23458) | 87 |
| Tyrosine-protein kinase Mer (MERTK, Homo sapiens, UniProt Q12866) | 82 |
| Serine/threonine-protein kinase 35 (STK35, Homo sapiens, UniProt Q8TDR2) | 99 |
| Serine/threonine-protein kinase 17B (STK17B, Homo sapiens, UniProt O94768) | 100 |
| Ankyrin repeat and protein kinase domain-containing protein 1 (ANKK1, Homo sapiens, UniProt Q8NFD2) | 78 |
| Serine/threonine-protein kinase PAK 5 (PAK5, Homo sapiens, UniProt Q9P286) | 63 |
| Phosphatidylinositol 4,5-bisphosphate 3-kinase catalytic subunit beta isoform (PIK3CB, Homo sapiens, UniProt P42338) | 84 |
| Receptor-type tyrosine-protein kinase FLT3 (FLT3, Homo sapiens, UniProt P36888, N841I) | 55 |
| Calcium/calmodulin-dependent protein kinase type 1B (PNCK, Homo sapiens, UniProt Q6P2M8) | 83 |
| Mitogen-activated protein kinase kinase kinase kinase 1 (MAP4K1, Homo sapiens, UniProt Q92918) | 91 |
| Ephrin type-B receptor 3 (EPHB3, Homo sapiens, UniProt P54753) | 94 |
| Death-associated protein kinase 1 (DAPK1, Homo sapiens, UniProt P53355) | 90 |
| Serine/threonine-protein kinase Chk1 (CHEK1, Homo sapiens, UniProt O14757) | 99 |
| Cyclin-dependent kinase 9 (CDK9, Homo sapiens, UniProt P50750) | 92 |
| Receptor-type tyrosine-protein kinase FLT3 (FLT3, Homo sapiens, UniProt P36888, R834Q) | 91 |
| Phosphatidylinositol 4,5-bisphosphate 3-kinase catalytic subunit alpha isoform (PIK3CA, Homo sapiens, UniProt P42336, H1047L) | 96 |

Sample 3 — technique: DHFR PCA, deep sequencing; medium: yeast; together with: (+)-ABA 0.0091 µM; relative to: wild-type fitted maximum; reading: higher = stronger binding
Target: ABI1, truncated, D143A, DHFR fusion (Arabidopsis thaliana)
Setting: methotrexate growth selection, single substitutions
Parent: PYL1, truncated, DHFR fusion (Arabidopsis thaliana); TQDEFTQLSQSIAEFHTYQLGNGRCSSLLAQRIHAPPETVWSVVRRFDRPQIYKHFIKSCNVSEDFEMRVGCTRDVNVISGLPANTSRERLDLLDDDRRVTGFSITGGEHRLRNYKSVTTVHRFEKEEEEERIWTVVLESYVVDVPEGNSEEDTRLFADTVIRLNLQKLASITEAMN; partner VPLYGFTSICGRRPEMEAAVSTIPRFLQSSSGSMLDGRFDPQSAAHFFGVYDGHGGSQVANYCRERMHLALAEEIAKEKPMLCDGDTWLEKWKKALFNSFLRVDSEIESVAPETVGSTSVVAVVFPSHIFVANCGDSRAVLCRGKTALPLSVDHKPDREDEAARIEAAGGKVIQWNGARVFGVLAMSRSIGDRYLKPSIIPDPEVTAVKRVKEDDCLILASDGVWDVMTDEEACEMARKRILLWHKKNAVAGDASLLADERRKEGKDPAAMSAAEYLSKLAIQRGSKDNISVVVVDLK
| Change | relative binding score [%] |
| --- | --- |
| T73F | 45.1 |
| Q10S | 39.4 |
| V136G | -8.52 |
| R46M | 3.51 |
| T106G | 3.16 |
| Y18H | 39.2 |
| R24Y | -0.454 |
| S9R | 57.9 |

Sample 4 — observed: enzyme activity; action: inhibitor; tested at: 0.5 µM; relative to: control
Structure (SMILES): Cc1ccc(NC(=O)c2ccc(CN3CCN(C)CC3)cc2)cc1Nc1nccc(-c2cccnc2)n1
| target | remaining activity [%] |
| --- | --- |
| Casein kinase I isoform gamma-3 (CSNK1G3, Homo sapiens, UniProt Q9Y6M4) | 100 |
| Tyrosine-protein kinase Mer (MERTK, Homo sapiens, UniProt Q12866) | 91 |
| Serine/threonine-protein kinase ULK3 (ULK3, Homo sapiens, UniProt Q6PHR2) | 108 |
| Macrophage-stimulating protein receptor (MST1R, Homo sapiens, UniProt Q04912) | 84.7 |
| MAP kinase-activated protein kinase 2 (MAPKAPK2, Homo sapiens, UniProt P49137) | 97.9 |
| Serine/threonine-protein kinase TAO2 (TAOK2, Homo sapiens, UniProt Q9UL54) | 104 |
| Mitogen-activated protein kinase kinase kinase 14 (MAP3K14, Homo sapiens, UniProt Q99558) | 99.1 |
| Rhodopsin kinase GRK7 (GRK7, Homo sapiens, UniProt Q8WTQ7) | 99.6 |
| Fibroblast growth factor receptor 3 (FGFR3, Homo sapiens, UniProt P22607) | 97.4 |
| Mitogen-activated protein kinase kinase kinase 5 (MAP3K5, Homo sapiens, UniProt Q99683) | 101 |
| Mitogen-activated protein kinase 3 (MAPK3, Homo sapiens, UniProt P27361) | 102 |
| Serine/threonine-protein kinase TBK1 (TBK1, Homo sapiens, UniProt Q9UHD2) | 96.7 |
| Serine/threonine-protein kinase ULK2 (ULK2, Homo sapiens, UniProt Q8IYT8) | 103 |
